Experimental data of several laboratories.
Parts stem from different laboratories: compare values within a part only. Substitutions count along the parent as printed.

Series 1
Target: ABI1, truncated, D143A, DHFR fusion (Arabidopsis thaliana)
Technique: DHFR PCA, deep sequencing
Medium: yeast
Setting: methotrexate growth selection, single substitutions
Together with: (+)-ABA 58 µM
Reference: wild-type fitted maximum
Reading: higher = stronger binding
Starting sequence: PYL1, truncated, DHFR fusion (Arabidopsis thaliana); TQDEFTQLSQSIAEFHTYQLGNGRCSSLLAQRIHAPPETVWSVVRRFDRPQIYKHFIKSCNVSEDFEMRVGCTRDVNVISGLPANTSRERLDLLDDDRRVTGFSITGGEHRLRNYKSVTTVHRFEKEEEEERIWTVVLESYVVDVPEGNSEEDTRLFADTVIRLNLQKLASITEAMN; partner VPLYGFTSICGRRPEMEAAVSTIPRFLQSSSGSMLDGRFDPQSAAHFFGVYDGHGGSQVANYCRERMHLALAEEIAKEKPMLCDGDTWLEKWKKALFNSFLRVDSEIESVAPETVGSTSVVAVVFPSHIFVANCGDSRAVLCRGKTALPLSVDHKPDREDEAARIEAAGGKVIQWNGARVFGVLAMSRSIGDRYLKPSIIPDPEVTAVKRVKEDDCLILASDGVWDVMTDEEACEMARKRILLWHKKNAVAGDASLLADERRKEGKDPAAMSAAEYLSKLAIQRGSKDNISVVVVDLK
Substitution	relative binding score
S26R	60.9%
S171L	79.9%
W134G	92.1%
G21E	92.9%
E14A	65.1%
S11H	71.8%
G81S	36.2%
E38D	91.4%
S59N	74.4%
C72S	82.4%
D97K	100%
T120Q	24.1%
Q19W	66.4%
S87I	14.2%
S117C	37.9%
I33V	77.4%

Series 2
Target: CCND3, cyclin fold, Cln2 fusion (human)
Technique: yeast growth competition, sequencing
Medium: yeast
Setting: weak parent motif
Reference: not given
Reading: higher = stronger binding
Starting sequence: RBL2 docking peptide (human); STTRRRLFVENDS
Substitution	normalised enrichment score
R6V	0.185
T2Y	0.0912
S1P	0.0912
S13T	0.134
F8M	0.0671
E10V	0.136
E10K	0.0533
R5V	0.112
R6Y	0.0316
S1W	0.0255
N11R	0.156
S13G	0.164
S13I	0.245
F8H	0.067
D12M	0.0791
R6A	0.134
E10R	0.106
D12W	0.0848
R5M	0.159
S13R	0.215
S1C	0.202
T2R	0.0404
R6C	0.143
E10A	0.108
F8N	0.0766

Series 3
Target: OGT, full length, His-tagged (human)
Technique: phage display, sequencing
Medium: in vitro
Tested at: 1 µg OGT
Setting: single substitutions, 15-mer displayed peptide, unchanged parent 5.27
Reference: input library
Reading: higher = stronger binding
Starting sequence: peptide; GDFPVMFMPKYSIIY
Substitution	fold enrichment [fold]
GDFPVMFMPKYSIIE [Y15E]	0.662
GDFPVMFMPKNSIIY [Y11N]	0.784
GDFPVMFMPTYSIIY [K10T]	1.16
EDFPVMFMPKYSIIY [G1E]	6.62
GDFPVMFMPKYWIIY [S12W]	6
GDFPHMFMPKYSIIY [V5H]	4.45
GDFPVQFMPKYSIIY [M6Q]	7.29
GDFPVMFMPRYSIIY [K10R]	1.47
GDFPVMFMPKYSIVY [I14V]	3.77
GDFPVMFMFKYSIIY [P9F]	2.92
GDFPVMFMPKYSRIY [I13R]	0.735
GDFPVMFMQKYSIIY [P9Q]	3.81
GDFPVMPMPKYSIIY [F7P]	0.884
GDFPVMFMAKYSIIY [P9A]	2.84
GDFPVMFMKKYSIIY [P9K]	1.79
GDFPVMFQPKYSIIY [M8Q]	0.747
GDFQVMFMPKYSIIY [P4Q]	7.14
MDFPVMFMPKYSIIY [G1M]	5.39

Single results of other studies
Substance	target	test	system	setting	how to read	endpoint	value
PhoQ, residues 284 288 289 292 302 303 GNNTDL	PhoP, residues 12 14 15 18 19 GQALL (Escherichia coli, UniProt P23836)	Sort-seq, item: YFP reporter	E. coli	PhoQ-PhoP variant library, together with: 10 µM Mg2+	reference: high Mg2+ state, higher = stronger signaling	fold induction	3.44

A few entries again (series 2):
Substitution	normalised enrichment score
R6A	0.134
E10R	0.106
D12W	0.0848
R5M	0.159
S13R	0.215
S1C	0.202
T2R	0.0404
